Measured values gathered from unrelated publications.
Lines come from different studies, so protocols differ. Values joined by “and” are separate records of one study, mostly repeats; a detail may differ. ± gives the spread as reported. ≈ marks a conversion by molar mass, not a printed value.

SMILES = NC(=O)c1nnn([C@@H]2C(F)=C(CO)[C@@H](O)[C@H]2O)c1N; organism = influenza virus; test = viral cytopathic effect, MTT; test system = MDCK; conditions = 72 h; measurement = EC50; result = > 100 µM
SMILES = OC(Cn1cncn1)(Cn1cncn1)c1ccc(F)cc1F; organism = Sporothrix schenckii; test = broth microdilution; test system = CFP 00746; conditions = 50% inhibition endpoint; measurement = MIC; result = 64 µg/mL (≈ 209 µM)
SMILES = OC(Cn1cncn1)(Cn1cncn1)c1ccc(F)cc1F; organism = Saccharomyces cerevisiae; test = cell growth; test system = Pdr5 deleted, Cdr1 overexpressed; conditions = 2^5.907 µg/mL; measurement = OD600; result = 0.333 and 0.453 and 0.452
SMILES = O=C(NNc1cccc(Cl)c1)c1nnc(CC23CC4CC(CC(C4)C2)C3)o1; organism = Fusarium graminearum; test = fungal growth, inhibitor; measurement = EC50; result = > 50 µg/mL
SMILES = Nc1ccn(C[C@@H](CO)OCP(=O)(O)O)c(=O)n1; organism = vesicular stomatitis virus; test = viral replication; test system = HEL; measurement = EC50; result = > 250 µM
SMILES = Nc1ncc(Br)c2c1ncn2[C@@H]1C=C(CO)[C@@H](O)[C@H]1O; organism = vesicular stomatitis virus; test = viral mRNA cap methylation; test system = wild type, GFP-expressing; conditions = concentration not given; measurement = methylated mRNA cap level; result = decreased
SMILES = O=C(NNc1cccc(Cl)c1)c1nnc(C23CC4CC(CC(C4)C2)C3)o1; organism = Fusarium graminearum; test = fungal growth, inhibitor; measurement = EC50; result = 3.77 ± 0.28 µg/mL
SMILES = Nc1ncnc2c([C@@H]3N[C@H](CO)[C@@H](O)[C@H]3O)c[nH]c12; organism = vesicular stomatitis virus; test = viral replication; test system = Vero 76; measurement = IC50; result = 14.9 µM
SMILES = CS(=O)(=O)Nc1ncn(-c2cc(F)c(COc3ccc(OS(=O)(=O)F)cc3)c(F)c2)n1; organism = Mycobacterium tuberculosis; test = time-kill; test system = H37Rv; conditions = 10 × MIC, 10 days; measurement = CFU reduction; result = 6 log10 CFU
SMILES = O=C(NNc1ccccc1)c1nnc(CC23CC4CC(CC(C4)C2)C3)o1; organism = Fusarium graminearum; test = fungal growth, inhibitor; conditions = 50 µg/mL; measurement = inhibition; result = 53.2 ± 2.6%
SMILES = CC[C@H](C)[C@H](NC(=O)[C@H](CCCNC(=N)N)NC(=O)[C@H](CCCNC(=N)N)NC(=O)[C@H](CCCNC(=N)N)NC(=O)[C@H](CCCNC(=N)N)NC(=O)[C@H](CCCNC(=N)N)NC(=O)[C@@H](N)CCCNC(=N)N)C(=O)N[C@@H](CO)C(=O)N[C@@H](Cc1ccccc1)C(=O)N[C@@H](CC(C)C)C(=O)NCC(=O)N[C@@H](CO)C(=O)N[C@@H](CCCCN)C(=O)N[C@@H](CCCCN)C(=O)N[C@@H](CCCCN)C(=O)N[C@@H](CCCCN)C(=O)N[C@@H](CCCCN)C(=O)N[C@@H](CC(C)C)C(=O)N[C@@H](CC(C)C)C(=O)N[C@@H](CCCCN)C(=O)N[C@@H](CCCNC(=N)N)C(N)=O; organism = Escherichia coli; test = checkerboard; conditions = unit not given, added: azithromycin; how to read = lower means synergy; measurement = FICI; result = 0.5
SMILES = COc1cc(NC(=O)Cn2ccc3cc(F)c(-c4cnn(C)c4)cc32)cc(OC)c1OC; organism = Plasmodium falciparum; test system = recrudescent Dd2-B2, PfATP4 V178I; conditions = flask 2; how to read = reference: Dd2-B2; measurement = IC90 fold shift; result = 130
SMILES = Nc1nc(N)c2nnn([C@@H]3C(F)=C(CO)[C@@H](O)[C@H]3O)c2n1; organism = influenza virus; test = viral cytopathic effect, MTT; test system = MDCK; conditions = 72 h; measurement = EC50; result = > 100 µM
SMILES = CO/C=C(/C(=O)OC)c1ccccc1Oc1cc(Oc2ccccc2C#N)ncn1; organism = Fusarium graminearum; test = fungal growth, inhibitor; conditions = 50 µg/mL; measurement = inhibition; result = 64.8 ± 3.1%
SMILES = Nc1nc(O)c2ncn(COC(CO)CO)c2n1; organism = vesicular stomatitis virus; test = viral replication; test system = HEL; measurement = EC50; result = > 100 µM
SMILES = O=C(NNc1ccc(F)c(F)c1)c1nnc(CC23CC4CC(CC(C4)C2)C3)o1; organism = Fusarium graminearum; test = fungal growth, inhibitor; conditions = 50 µg/mL; measurement = inhibition; result = 100%
SMILES = Nc1ncnc2c1nnn2[C@@H]1C(F)=C(CO)[C@@H](O)[C@H]1O; organism = influenza virus; test = viral cytopathic effect, MTT; test system = MDCK; conditions = 72 h; measurement = EC50; result = > 100 µM
SMILES = CCCCCCCCCCCC(=O)OC[C@H]1O[C@@H](n2cc(C)c(=O)[nH]c2=O)C[C@@H]1OC(=O)c1ccc(C(C)(C)C)cc1; organism = Salmonella enterica serovar Typhi; test = broth microdilution; measurement = MIC; result = 0.5 µg/mL (≈ 0.855 µM)

Repeated from above:
SMILES = Nc1ncnc2c1nnn2[C@@H]1C(F)=C(CO)[C@@H](O)[C@H]1O; organism = influenza virus; test = viral cytopathic effect, MTT; test system = MDCK; conditions = 72 h; measurement = EC50; result = > 100 µM
SMILES = CCCCCCCCCCCC(=O)OC[C@H]1O[C@@H](n2cc(C)c(=O)[nH]c2=O)C[C@@H]1OC(=O)c1ccc(C(C)(C)C)cc1; organism = Salmonella enterica serovar Typhi; test = broth microdilution; measurement = MIC; result = 0.5 µg/mL (≈ 0.855 µM)
